Measurements from different studies.
Lines come from different studies, so protocols differ. Values joined by “and” are separate records of one study, mostly repeats; a detail may differ. ± gives the spread as reported. ≈ marks a conversion by molar mass, not a printed value.
Organism: Staphylococcus aureus

| Compound | assay | system | conditions | scale | measurement | result |
| --- | --- | --- | --- | --- | --- | --- |
| C[C@H]1COc2c(N3CCN(C)CC3)c(F)cc3c(=O)c(C(=O)O)cn1c23 |  | ATCC 25904 | 20 h |  | MBC | 0.091 µg/mL |
| COC(=O)[C@H](C)NC(=O)[C@H](Cc1ccccc1)NC(=O)C1OCC2(CCCCC2)CO1 | crystal violet staining |  | 500 µg/mL, 24 h | reference: untreated | residual biofilm | 23 ± 8% |
| NC[C@H]1O[C@H](O[C@H]2[C@H](O)[C@@H](O[C@H]3O[C@H](CO)[C@@H](O)[C@H](N)[C@H]3O)[C@H](N)C[C@@H]2N)[C@H](O)[C@@H](O)[C@@H]1O |  | CGMCC 1.9 | concentration not given, 18 h, 37 °C |  | inhibition zone diameter | 17.5 mm |
| C[C@@H]1O[C@@H](OC[C@H]2O[C@@H](Oc3c(-c4ccc(O)c(O)c4)oc4cc(O)cc(O)c4c3=O)[C@H](O)[C@@H](O)[C@@H]2O)[C@H](O)[C@H](O)[C@H]1O | bacterial growth | ATCC 29213 | 24 h |  | IC50 | > 100 µM |
| CN[C@H](CC(C)C)C(=O)N[C@H]1C(=O)N[C@@H](CC(N)=O)C(=O)N[C@H]2C(=O)N[C@H]3C(=O)N[C@H](C(=O)N[C@H](C(=O)O)c4cc(O)cc(O)c4-c4cc3ccc4O)[C@H](O)c3ccc(c(Cl)c3)Oc3cc2cc(c3O[C@@H]2O[C@H](CO)[C@@H](O)[C@H](O)[C@H]2O[C@H]2C[C@](C)(N)[C@H](O)[C@H](C)O2)Oc2ccc(cc2Cl)[C@H]1O |  | USA300 LAC MRSA, mouse lung infection | dose not given |  | bacterial load in lung | 6.92 log CFU and 7.38 log CFU and 7.68 log CFU and 7.2 log CFU and 8.51 log CFU |
| Cc1ccc(C[C@H](NC(=O)[C@@H](Cc2ccccc2)NC(=O)[C@@H](Cc2c[nH]c3ccccc23)NC(=O)[C@@H](N)CCCN)C(=O)N[C@H](Cc2ccccc2)C(=O)N[C@H](CCCNC(=N)N)C(N)=O)cc1 |  | ATCC 33591, methicillin-resistant |  |  | IC50 | > 20 µg/mL |
| O=C(O)c1ccc(-n2cc(CNc3cc(Br)cc(C(F)(F)F)c3)c(-c3cccc(F)c3)n2)cc1 |  | ATCC 700699, MRSA | 4 × MIC |  | time to kill below detection | ≤ 10 h |
| CCN1CCN(c2cc3c(cc2F)c(=O)c(C(=O)O)cn3C2CC2)CC1 |  | CGMCC 1.9 | concentration not given, 18 h, 37 °C |  | inhibition zone diameter | 18 mm |
| CN[C@H](CC(C)C)C(=O)N[C@H]1C(=O)N[C@@H](CC(N)=O)C(=O)N[C@H]2C(=O)N[C@H]3C(=O)N[C@H](C(=O)N[C@H](C(=O)O)c4cc(O)cc(O)c4-c4cc3ccc4O)[C@H](O)c3ccc(c(Cl)c3)Oc3cc2cc(c3O[C@@H]2O[C@H](CO)[C@@H](O)[C@H](O)[C@H]2O[C@H]2C[C@](C)(N)[C@H](O)[C@H](C)O2)Oc2ccc(cc2Cl)[C@H]1O |  | 09057, female BALB/c mice, sepsis, kidney | intraperitoneal, 20 mg/kg |  | log bacterial load | 4.34 log(CFU/g) and 4.97 log(CFU/g) and 4.59 log(CFU/g) and 5.22 log(CFU/g) and 4.88 log(CFU/g) and 4.67 log(CFU/g) |
| CN[C@H](CC(C)C)C(=O)N[C@H]1C(=O)N[C@@H](CC(N)=O)C(=O)N[C@H]2C(=O)N[C@H]3C(=O)N[C@H](C(=O)N[C@H](C(=O)O)c4cc(O)cc(O)c4-c4cc3ccc4O)[C@H](O)c3ccc(c(Cl)c3)Oc3cc2cc(c3O[C@@H]2O[C@H](CO)[C@@H](O)[C@H](O)[C@H]2O[C@H]2C[C@](C)(N)[C@H](O)[C@H](C)O2)Oc2ccc(cc2Cl)[C@H]1O | broth microdilution | MRSA NCTC 12493 |  |  | MBC | 1 µM |
| CC(C)c1ccc(/C=C2\N=C(SCc3ccc([N+](=O)[O-])cc3)N(c3ccccc3)C2=O)cc1 |  | ATCC 6538 | concentration not given |  | inhibition zone diameter | 11 ± 0.66 mm |
| O=C(/C=C/c1ccc(O)c(O)c1)O[C@@H]1C[C@@](O)(C(=O)O)C[C@@H](O)[C@@H]1O | bacterial growth | ATCC 29213 | 24 h |  | IC50 | > 100 µM |
| O=C(NCCc1ccccc1)C1COC2(CCCCC2)O1 (stereo not shown) | crystal violet staining |  | 500 µg/mL, 24 h | reference: untreated | residual biofilm | 11 ± 1% |
| CCCCCCCCCC(=O)N[C@@H](Cc1c[nH]c2ccccc12)C(=O)N[C@H](CC(N)=O)C(=O)N[C@@H](CC(=O)O)C(=O)N[C@@H]1C(=O)NCC(=O)N[C@@H](CCCN)C(=O)N[C@@H](CC(=O)O)C(=O)N[C@H](C)C(=O)N[C@@H](CC(=O)O)C(=O)NCC(=O)N[C@H](CO)C(=O)N[C@@H]([C@H](C)CC(=O)O)C(=O)N[C@@H](CC(=O)c2ccccc2N)C(=O)O[C@@H]1C |  | MRSA ATCC BAA-1556 | 4 x MIC |  | time to complete killing | 3 h |
| CCCCCCCCCC(=O)N[C@@H](Cc1c[nH]c2ccccc12)C(=O)N[C@H](CC(N)=O)C(=O)N[C@@H](CC(=O)O)C(=O)N[C@@H]1C(=O)NCC(=O)N[C@@H](CCCN)C(=O)N[C@@H](CC(=O)O)C(=O)N[C@H](C)C(=O)N[C@@H](CC(=O)O)C(=O)NCC(=O)N[C@H](CO)C(=O)N[C@@H]([C@H](C)CC(=O)O)C(=O)N[C@@H](CC(=O)c2ccccc2N)C(=O)O[C@@H]1C | Calgary Biofilm Device | MRSA 1707 biofilm | 24 h |  | MBEC | > 2000 µM |
| COc1ccc(/C=C2\NC(=S)N(c3ccccc3)C2=O)c(OC)c1 |  | ATCC 6538 | concentration not given |  | inhibition zone diameter | 11 ± 0.23 mm |
| NCC[C@H](O)C(=O)N[C@@H]1C[C@H](N)[C@@H](O[C@H]2O[C@H](CN)[C@@H](O)[C@H](O)[C@H]2O)[C@H](O)[C@H]1O[C@H]1O[C@H](CO)[C@@H](O)[C@H](N)[C@H]1O |  | CGMCC 1.9 | concentration not given, 18 h, 37 °C |  | inhibition zone diameter | 18 mm |

| Compound | assay | system | conditions | scale | measurement | result |
| --- | --- | --- | --- | --- | --- | --- |
| CCCCCCCCCCCC(=O)N[C@H](CO)C(=O)N[C@@H]1C(=O)N[C@H](CCN)C(=O)N[C@@H](CC(=O)O)C(=O)NCC(=O)N[C@H](CC(N)=O)C(=O)N[C@H](CC(=O)O)C(=O)NCC(=O)N[C@@H](Cc2ccc(O)cc2)C(=O)N[C@@H](C(C)C)C(=O)N[C@@H](CCN)C(=O)N[C@@H](Cc2ccccc2)C(=O)O[C@@H]1C |  | USA300 | concentration not given, compound to lipid molar ratios 0 and 5, with: undecaprenyl phosphate |  | antibacterial activity | decreased |
| O=C(O)C=Cc1ccc(O)cc1 | bacterial growth | ATCC 29213 | 24 h |  | IC50 | > 100 µM |
| Cc1ccc(C[C@H](NC(=O)[C@@H](Cc2ccccc2)NC(=O)[C@@H](Cc2c[nH]c3ccccc23)NC(=O)[C@@H](N)CCCN)C(=O)N[C@H](Cc2ccccc2)C(=O)N[C@H](CCCN)C(N)=O)cc1 |  | ATCC 33591, methicillin-resistant |  |  | IC50 | > 20 µg/mL |
| CC[C@@H](C)[C@H]1O[C@@H](c2c(O)c(-c3ccccc3)cn(O)c2=O)[C@H](C)C[C@@H]1C | bacterial growth | ATCC 29213 |  |  | IC50 | > 20 µg/mL |
| O=C(O)c1ccc(-n2cc(CNc3cc(Br)cc(C(F)(F)F)c3)c(-c3ccc(F)c(F)c3)n2)cc1 | membrane permeabilisation, flow cytometry | ATCC 700699 | 2 x MIC, 30 min |  | PI-stained cells | 32% |
| CC(=O)NC[C@H]1CN(c2ccc(N3CCOCC3)c(F)c2)C(=O)O1 |  | MRSA | 10 isolates |  | MIC50 | 0.5 µg/mL (≈ 1.48 µM) |
| CN[C@H](CC(C)C)C(=O)N[C@H]1C(=O)N[C@@H](CC(N)=O)C(=O)N[C@H]2C(=O)N[C@H]3C(=O)N[C@H](C(=O)N[C@H](C(=O)O)c4cc(O)cc(O)c4-c4cc3ccc4O)[C@H](O)c3ccc(c(Cl)c3)Oc3cc2cc(c3O[C@@H]2O[C@H](CO)[C@@H](O)[C@H](O)[C@H]2O[C@H]2C[C@](C)(N)[C@H](O)[C@H](C)O2)Oc2ccc(cc2Cl)[C@H]1O |  | USA300 LAC, female ICR mice, peritonitis, heart |  |  | bacterial load | 4.21 log CFU and 5.31 log CFU and 4.9 log CFU and 4.46 log CFU and 4.05 log CFU and 5.46 log CFU |
| O=C(N[C@@H](Cc1ccccc1)C(=O)O)C1COC2(CCCCC2)OC1 | crystal violet staining |  | 500 µg/mL, 24 h | reference: untreated | residual biofilm | 19 ± 6% |
| COc1cc(-c2oc3cc(O)cc(O)c3c(=O)c2O[C@@H]2O[C@H](CO)[C@@H](O)[C@H](O)[C@H]2O)ccc1O | bacterial growth | ATCC 29213 | 24 h |  | IC50 | > 100 µM |
| CN[C@H](CC(C)C)C(=O)N[C@H]1C(=O)N[C@@H](CC(N)=O)C(=O)N[C@H]2C(=O)N[C@H]3C(=O)N[C@H](C(=O)N[C@H](C(=O)O)c4cc(O)cc(O)c4-c4cc3ccc4O)[C@H](O)c3ccc(c(Cl)c3)Oc3cc2cc(c3O[C@@H]2O[C@H](CO)[C@@H](O)[C@H](O)[C@H]2O[C@H]2C[C@](C)(N)[C@H](O)[C@H](C)O2)Oc2ccc(cc2Cl)[C@H]1O |  | ATCC 29213 |  |  | MBC range | 4 µg/mL (≈ 2.76 µM) |
| CO[C@H]1[C@H](O[C@H]([C@H]2O[C@@H](n3ccc(=O)[nH]c3=O)[C@H](O)[C@@H]2O)[C@H](NCCCNC(=O)[C@@H](NC(=O)[C@@H](NC(=O)N[C@H](C(=O)O)C(C)C)[C@@H]2CCN=C(N)N2)[C@@H](O)C(C)C)C(=O)O)O[C@H](CN)[C@H]1O | resazurin microplate | 71080 (NR-46418) |  |  | MIC90 | > 35 µg/mL |
| CN[C@H](CC(C)C)C(=O)N[C@H]1C(=O)N[C@@H](CC(N)=O)C(=O)N[C@H]2C(=O)N[C@H]3C(=O)N[C@H](C(=O)N[C@H](C(=O)O)c4cc(O)cc(O)c4-c4cc3ccc4O)[C@H](O)c3ccc(c(Cl)c3)Oc3cc2cc(c3O[C@@H]2O[C@H](CO)[C@@H](O)[C@H](O)[C@H]2O[C@H]2C[C@](C)(N)[C@H](O)[C@H](C)O2)Oc2ccc(cc2Cl)[C@H]1O | broth microdilution | methicillin-resistant isolates |  |  | MIC90 | 2 µg/mL (≈ 1.38 µM) |
| O=c1cc(-c2ccc(O)c(O)c2)oc2cc(O)cc(O)c12 | bacterial growth | ATCC 29213 | 24 h |  | IC50 | > 100 µM |
| CN[C@H](CC(C)C)C(=O)N[C@H]1C(=O)N[C@@H](CC(N)=O)C(=O)N[C@H]2C(=O)N[C@H]3C(=O)N[C@H](C(=O)N[C@H](C(=O)O)c4cc(O)cc(O)c4-c4cc3ccc4O)[C@H](O)c3ccc(c(Cl)c3)Oc3cc2cc(c3O[C@@H]2O[C@H](CO)[C@@H](O)[C@H](O)[C@H]2O[C@H]2C[C@](C)(N)[C@H](O)[C@H](C)O2)Oc2ccc(cc2Cl)[C@H]1O | time-kill | MRSA GU-1 | 1 µg/mL |  | time to complete killing | 8 h |
| CC(=O)NC[C@H]1CN(c2ccc(N3CCOCC3)c(F)c2)C(=O)O1 | Calgary Biofilm Device | MRSA 1707 | 24 h |  | MBC | 31.3 µM |
| O=C(O)c1ccc(O)c(O)c1 | bacterial growth | ATCC 29213 | 24 h |  | IC50 | > 100 µM |
| NCCCC[C@H](NC(=O)[C@H](Cc1ccccc1)NC(=O)[C@H](CCC(N)=O)NC(=O)[C@H](Cc1ccccc1)NC(=O)[C@H](CCC(N)=O)NC(=O)[C@@H](N)Cc1ccccc1)C(N)=O |  | ATCC 25923 |  |  | MBC | 2080 µM |

Some of these lines once more:
| Compound | assay | system | conditions | scale | measurement | result |
| --- | --- | --- | --- | --- | --- | --- |
| COC(=O)[C@H](C)NC(=O)[C@H](Cc1ccccc1)NC(=O)C1OCC2(CCCCC2)CO1 | crystal violet staining |  | 500 µg/mL, 24 h | reference: untreated | residual biofilm | 23 ± 8% |
| NC[C@H]1O[C@H](O[C@H]2[C@H](O)[C@@H](O[C@H]3O[C@H](CO)[C@@H](O)[C@H](N)[C@H]3O)[C@H](N)C[C@@H]2N)[C@H](O)[C@@H](O)[C@@H]1O |  | CGMCC 1.9 | concentration not given, 18 h, 37 °C |  | inhibition zone diameter | 17.5 mm |
